Results pooled from the literature.
Values joined by “and” are separate records of one study, mostly repeats; a detail may differ. ± gives the spread as reported.
Organism: HIV-1

C[C@H](Cn1cnc2c(N)ncnc21)OCP(=O)(O)O — EC50 (viral cytopathic effect; MT-4, NL4.3): 3770 nM
Cc1ccnc2c1NC(=O)c1cccnc1N2C1CC1 — resistance fold (MTT; MT4, RT L100I/V179D/Y181C mutant; baseline: mutant EC50 over IIIB EC50): > 106
O=C(c1cc(-n2sc3ncccc3c2=O)ccc1Cl)N1CCOCC1 — inhibition (viral replication; 3 µM): > 50%
Cc1cc(C#N)cc(C)c1Oc1nc(Nc2ccc(C#N)cc2)nc(N)c1Br — resistance fold (MTT; MT4, RT A98G/V106I/V179D/Y181C/G333E mutant; baseline: mutant EC50 over IIIB EC50): 176
CC(C)CN(C[C@@H](O)[C@H](Cc1cc(F)cc(F)c1)NC(=O)O[C@@H]1C[C@H]2C[C@@H]3[C@@H](OC[C@@H]31)O2)S(=O)(=O)c1ccc2nc(NC3CC3)sc2c1 — IC50 (viral replication): 1.7 ± 1.6 nM
C=CC(=O)n1c(=O)n(CCOc2cc(Cl)ccc2Oc2cc(Cl)cc(C#N)c2)c2ccccc21 — EC50 (viral cytopathic effect; MT-2, IIIB, wild type): ~400 nM
O=C(c1ccc(-n2sc3ncccc3c2=O)cc1)N1CCOCC1 — IC50 (viral replication): ~3000 nM
C=C(C)[C@]12C[C@@H](C)[C@@]34OC(c5ccccc5)(O[C@@H]1[C@@H]3[C@H](O)[C@](O)(COC(=O)c1ccccc1)[C@@H](O)[C@@]1(O)[C@H]4C[C@H](C)[C@@H]1O)O2 — EC50 (viral replication, luciferase reporter; MT-4, NL4-3 Nanoluc-sec): 134 ± 19.2 nM
Cc1nnc(C(=O)NC(C)(C)c2nc(C(=O)NCc3ccc(F)cc3)c(O)c(=O)n2C)o1 — EC50 (viral infection): 20 nM
Nc1ccn([C@H]2CC[C@@H](CO)O2)c(=O)n1 — resistance fold (MTT; MT4, RT A98G/V106I/V179D/Y181C/G333E mutant; baseline: mutant EC50 over IIIB EC50): 1
COC(=O)N[C@H](C(=O)N[C@@H](Cc1ccccc1)[C@@H](O)CN(Cc1ccc(-c2ccccn2)cc1)NC(=O)[C@@H](NC(=O)OC)C(C)(C)C)C(C)(C)C — IC50 (viral replication; MT-4): 4 ± 0.7 nM
Cc1ccc(-n2sc3ccccc3c2=O)cc1 — IC50 (TZM-bl; 48 h): 1100 nM
C=CC(=O)n1c(=O)n(CCOc2ccccc2Oc2cccc3cc(C#N)ccc23)c2ccccc21 — EC50 (viral cytopathic effect; MT-2, IIIB): 0.5 ± 0.1 nM
O=c1c2ccccc2sn1-c1ccc(F)c(F)c1 — inhibition (viral replication; 3 µM): > 60%
Nc1ccn([C@@H]2CS[C@H](CO)O2)c(=O)n1 — resistance fold (MTT; MT4, RT L100I/V179D/Y181C mutant; baseline: mutant EC50 over IIIB EC50): 1.8
N#C/C=C/c1ccc2c(S(=O)(=O)n3nc(Nc4ccc(C#N)c(Cl)c4)nc3N)cccc2c1 — EC50 (viral replication; TZM-bl, A17 K103N/Y181C; 48 h): 8.58 ± 1.09 nM
O=C(/C=C(\O)C(=O)N1CCN(c2ccc(-n3cccc3)cc2)CC1)c1cc(Cc2cc(F)cc(F)c2)cn(Cc2ccccc2F)c1=O — EC50 (viral replication; MAGI-R5): 50 ± 10 nM
O=C(c1ccc(OS(=O)(=O)F)cc1O)c1ccc(OS(=O)(=O)F)cc1O — EC50 (infectivity of produced virus; NL4-3 ΔEnv-GFP VSV-G pseudotyped): 5700 ± 2500 nM
COc1cc(-n2sc3ccccc3c2=O)ccc1F — IC50 (viral replication): 320 nM and 210 nM
CN(C)c1ccc(/N=N/c2ccc(Cl)cc2)cc1 — EC50 (viral replication; MT4, IIIB): > 100000 nM
Cn1c(Cn2ccc(C(F)(F)F)c(Oc3cc(Cl)cc(C#N)c3)c2=O)n[nH]c1=O — resistance fold (MTT; MT4, RT L100I/V179D/Y181C mutant; baseline: mutant EC50 over IIIB EC50): 13
O=c1c2ccccc2sn1-c1ccc(S(=O)(=O)N2CCCC2)cc1 — inhibition (viral replication; 3 µM): > 50%

Some of these lines once more:
Nc1ccn([C@H]2CC[C@@H](CO)O2)c(=O)n1 — resistance fold (MTT; MT4, RT A98G/V106I/V179D/Y181C/G333E mutant; baseline: mutant EC50 over IIIB EC50): 1
COC(=O)N[C@H](C(=O)N[C@@H](Cc1ccccc1)[C@@H](O)CN(Cc1ccc(-c2ccccn2)cc1)NC(=O)[C@@H](NC(=O)OC)C(C)(C)C)C(C)(C)C — IC50 (viral replication; MT-4): 4 ± 0.7 nM
Cc1ccc(-n2sc3ccccc3c2=O)cc1 — IC50 (TZM-bl; 48 h): 1100 nM
